Earlier results, collected from citations in different studies.
Compare with care: the assays were run in different laboratories. ± gives the spread as reported. In brackets after ≈: the same amount, converted by molar mass.
Chain of UniProt P23458 (whole entry, looked up): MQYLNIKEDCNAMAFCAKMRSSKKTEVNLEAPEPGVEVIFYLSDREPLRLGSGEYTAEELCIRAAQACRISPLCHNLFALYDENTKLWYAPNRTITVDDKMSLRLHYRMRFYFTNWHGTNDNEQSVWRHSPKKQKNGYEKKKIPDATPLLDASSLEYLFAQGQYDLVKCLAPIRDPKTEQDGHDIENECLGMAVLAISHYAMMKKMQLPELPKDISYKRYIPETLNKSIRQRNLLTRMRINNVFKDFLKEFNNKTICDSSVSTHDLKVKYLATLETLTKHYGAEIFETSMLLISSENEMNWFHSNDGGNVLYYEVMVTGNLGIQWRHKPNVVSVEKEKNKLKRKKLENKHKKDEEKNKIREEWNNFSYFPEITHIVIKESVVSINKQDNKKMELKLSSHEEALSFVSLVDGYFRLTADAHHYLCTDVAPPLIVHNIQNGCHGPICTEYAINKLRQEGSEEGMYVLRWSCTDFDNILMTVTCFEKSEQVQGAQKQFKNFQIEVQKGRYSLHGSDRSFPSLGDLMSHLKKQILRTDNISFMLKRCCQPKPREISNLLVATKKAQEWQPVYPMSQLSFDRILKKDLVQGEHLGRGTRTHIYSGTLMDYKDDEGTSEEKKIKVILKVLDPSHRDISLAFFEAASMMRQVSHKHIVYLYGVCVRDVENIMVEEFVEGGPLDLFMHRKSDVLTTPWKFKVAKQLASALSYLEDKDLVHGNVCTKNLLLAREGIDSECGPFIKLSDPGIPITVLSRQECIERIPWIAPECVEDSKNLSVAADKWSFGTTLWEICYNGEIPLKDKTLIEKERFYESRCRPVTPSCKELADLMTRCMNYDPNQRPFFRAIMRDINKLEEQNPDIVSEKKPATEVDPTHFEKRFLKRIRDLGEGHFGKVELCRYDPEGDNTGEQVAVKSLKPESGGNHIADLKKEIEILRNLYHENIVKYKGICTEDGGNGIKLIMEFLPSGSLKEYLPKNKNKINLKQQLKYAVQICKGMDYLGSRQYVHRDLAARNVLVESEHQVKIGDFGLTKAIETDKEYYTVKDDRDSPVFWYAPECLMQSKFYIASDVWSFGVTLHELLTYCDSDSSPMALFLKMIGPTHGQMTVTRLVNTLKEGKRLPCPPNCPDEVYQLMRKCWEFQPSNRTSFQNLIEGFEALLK
Chain of UniProt Q9UPZ9 (whole entry, looked up): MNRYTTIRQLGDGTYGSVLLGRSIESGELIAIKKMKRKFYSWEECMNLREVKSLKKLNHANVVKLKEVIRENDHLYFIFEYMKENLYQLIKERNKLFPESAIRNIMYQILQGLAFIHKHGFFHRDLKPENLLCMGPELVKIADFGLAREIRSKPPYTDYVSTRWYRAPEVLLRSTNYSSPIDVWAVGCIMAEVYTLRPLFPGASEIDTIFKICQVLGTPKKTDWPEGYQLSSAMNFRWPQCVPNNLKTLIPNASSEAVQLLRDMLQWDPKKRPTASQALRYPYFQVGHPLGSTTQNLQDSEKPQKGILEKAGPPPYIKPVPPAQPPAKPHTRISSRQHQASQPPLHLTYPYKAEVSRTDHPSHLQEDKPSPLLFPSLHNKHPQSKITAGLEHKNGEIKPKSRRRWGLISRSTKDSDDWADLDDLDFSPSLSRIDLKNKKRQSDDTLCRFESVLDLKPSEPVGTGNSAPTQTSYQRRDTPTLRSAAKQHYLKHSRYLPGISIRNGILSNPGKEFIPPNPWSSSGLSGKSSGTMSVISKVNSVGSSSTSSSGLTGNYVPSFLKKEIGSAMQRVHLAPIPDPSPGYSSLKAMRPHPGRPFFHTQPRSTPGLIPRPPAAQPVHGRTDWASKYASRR

`CO[C@]1(C(=O)N[C@@H](C)c2ccc(-n3cc(F)cn3)nc2)CC[C@H](c2nc(C)cc(Nc3cc(C)[nH]n3)n2)CC1`: tolerability “not toxic” (healthy human; 200 mg single, with: itraconazole).
The Tmax of `N#C[C@@]1(c2ccc3c(N)ncnn23)O[C@H](CO)[C@@H](O)[C@H]1O` is reported as 4.8 min (dog; intravenous, 2 mg/kg, unadjusted NCATS data).
`CCN(CC)CCN(CCNCCc1ccc(O)c2[nH]c(=O)sc12)C(=O)CCOCCc1cccc2ccccc12` gave a Tlast of 48 h (human, plasma; inhaled).
`CC1(C)S[C@@H]2[C@H](NC(=O)[C@H](N)c3ccccc3)C(=O)N2[C@H]1C(=O)O` has an MIC of > 16 µg/mL (Pseudomonas aeruginosa; clinical isolate RKI-No_484/12).
For `CC(C)c1ccc(Nc2ncnc3sc(Nc4c(Cl)cccc4Cl)nc23)cc1`, the IC50 was 10 nM (TRPV1; calcium flux, antagonist; HEK293; with: capsaicin).
`CC(C)n1c(=O)n(C)c2cnc3cc(F)c(-c4ccc(OCCCN5CCCCC5)nc4)cc3c21` has a Kp,uu of 0.17 (rat, brain over plasma).
`CN(C)C(=O)c1cc2cnc(Nc3ccc(N4CCNCC4)cn3)nc2n1C1CCCC1` — result for “decrease in Cmax”: 81% (human; 600 mg single dose, with: rifampicin 600 mg daily for 14 days; relative to: compound alone).
For `Cc1cc(Nc2ccc(S(F)(F)(F)(F)F)cc2)n2ncnc2n1`, the intrinsic clearance was < 5 µL/min/mg (human liver microsomes).
For `C=CCCC(=O)O`, the EC10 was 747000 nM (scoliosis or lordosis; zebrafish embryo; nominal concentration).
`C[C@H]1COCCN1c1nc(-c2cnc(N)cc2C(F)F)nc(N2CCOCC2)n1` has a GI50 of 449 nM (SK-N-FI).
With `CNC(C)C1CCC(N)C(OC2C(N)CC(N)C(OC3OCC(C)(O)C(NC)C3O)C2O)O1` (centres unmarked) the MIC was > 8 µg/mL (Pseudomonas aeruginosa; clinical isolate RKI-No_484/12).
For `N#Cc1ccc([C@H]2CCc3cncn32)c(F)c1`, the renal clearance was 0.86 L/h (human).
For `CNC(=O)c1ccc(N2C(=S)N(c3ccc(C#N)c(C(F)(F)F)c3)C(=O)C2(C)C)cc1F`, “apparent oral clearance” read 0.61 ± 0.2 L/h (prostate cancer patients; oral).
`Cc1c(C#N)cccc1[C@@H](C)Nc1nnc(C)c2cnc(N3CCOCC3)cc12` gave an IC50 of > 1000 nM (NCI-H1435; 3D cell viability; 14 d).
For `COc1c(Cl)cccc1Nc1c(-c2ccncc2OC[C@@H]2COCCO2)[nH]c2c1C(=O)NCC2`, “treatment-related AEs incidence” read 96% (patients, NSCLC, HER2-mutant, previously treated; dose not given, any grade).
`O=C(c1cccnc1-c1ccncc1)N1CCC(O)(Cc2ccccc2)CC1`: “withdrawal due to TEAEs” 5.6% (children with Dravet or Lennox-Gastaut syndrome; dose not given).
For `CCN1CCN(Cc2ccc(Nc3ncc(F)c(-c4cc(F)c5nc(C)n(C(C)C)c5c4)n3)nc2)CC1`, “parent share of plasma radioactivity” read ~79% (rat, plasma; dose not given).
`CC(=O)OCC(CCn1cnc2cnc(N)nc21)COC(C)=O` has an oral bioavailability of 41% (rat; 4000 mg/kg).
With `C[C@H](Cn1cnc2c(N)ncnc21)OCP(=O)(O)O` the renal clearance was 2.7 mL/min/kg (human).
For `Oc1ccc(C(c2ccc(O)cc2)(C(F)(F)F)C(F)(F)F)cc1`, the Cmax was 729 nM (measured: free (unconjugated) compound; Sprague-Dawley rat, female; oral gavage, 110 mg/kg).
`Nc1cc(C(F)(F)F)c(-c2nc(N3CCOCC3)nc(N3CCOCC3)n2)cn1` has a remaining activity of 100% (CILK1 (Homo sapiens, UniProt Q9UPZ9); enzyme activity; 10 µM; relative to: untreated).
With `CCCS(=O)(=O)Nc1ccc(F)c(C(=O)c2c[nH]c3ncc(-c4ccc(Cl)cc4)cc23)c1F` the Vd was 0.263 L/kg (mouse; intravenous, single dose).
`C[Si]1(C)O[Si](C)(C)O[Si](C)(C)O[Si](C)(C)O[Si](C)(C)O1` gave a log KOW of 8.07 (0.13 0.24 µg/L in water, 24.6 °C).
`O=C(OCc1ccccc1)c1ccc(O)cc1` gave a logD of 3.52 (pH 7.4).
For `CC(=O)c1c(C)c2cnc(Nc3ccc(N4CCNCC4)cn3)nc2n(C2CCCC2)c1=O`, the Cmax was 1260 ng/mL (male rat; 30 mg/kg).
Under “recovered drug-related material”, `N#CCNC(=O)c1ccc(-c2ccnc(Nc3ccc(N4CCOCC4)cc3)n2)cc1` is recorded as 69.3% (human, feces; oral, time not given, single dose 14C-labelled; relative to: dose).
`C=CC(=O)N1CCC(C(=O)NCC(=O)N2CCN(c3nc(-c4cnc(N)nc4C(F)F)nc(N4CCOCC4)n3)CC2)CC1` gave a remaining activity of 32% (Tyrosine-protein kinase JAK1, JH2 pseudokinase domain (JAK1, Homo sapiens, UniProt P23458); kinase activity; 1 µM).
`CNC(=C[N+](=O)[O-])NCCSCc1ccc(CN(C)C)o1` gave a kinetic solubility of 79.5 µg/mL (≈ 253 µM).
The logKow of `c1ccc2c(c1)c1cccc3ccc4cccc2c4c31` is reported as 6.58 (slow stirring).

For quick reference, copied from above:
For `COc1c(Cl)cccc1Nc1c(-c2ccncc2OC[C@@H]2COCCO2)[nH]c2c1C(=O)NCC2`, “treatment-related AEs incidence” read 96% (patients, NSCLC, HER2-mutant, previously treated; dose not given, any grade).
`Nc1cc(C(F)(F)F)c(-c2nc(N3CCOCC3)nc(N3CCOCC3)n2)cn1` has a remaining activity of 100% (CILK1 (Homo sapiens, UniProt Q9UPZ9); enzyme activity; 10 µM; relative to: untreated).
`CN(C)C(=O)c1cc2cnc(Nc3ccc(N4CCNCC4)cn3)nc2n1C1CCCC1` — result for “decrease in Cmax”: 81% (human; 600 mg single dose, with: rifampicin 600 mg daily for 14 days; relative to: compound alone).
`CC(C)n1c(=O)n(C)c2cnc3cc(F)c(-c4ccc(OCCCN5CCCCC5)nc4)cc3c21` has a Kp,uu of 0.17 (rat, brain over plasma).
